Measurements collected from several papers.
Parts stem from different laboratories: compare values within a part only. Changes are numbered by the printed parent chain.

Block 1
Target: Histone acetyltransferase KAT6A, winged helix 1, GST fusion (KAT6A, Homo sapiens, UniProt Q92794, residues 1-85)
Technique: protein binding microarray
Form: double-stranded DNA, one strand shown
Sample: in vitro
Concentration: not given
Notes: 8-mer, flanks averaged, mean of 2 arrays, mostly near background
Baseline: not given
Direction: higher = stronger binding
Target sequence (chain): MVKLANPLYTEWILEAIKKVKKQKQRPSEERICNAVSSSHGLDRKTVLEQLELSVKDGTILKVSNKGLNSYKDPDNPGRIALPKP
Sequence	E-score
CTGTTAGC	-0.0981
CAATATCG	0.0287
CAGATGCA	-0.266
CGCAGGAA	0.0553
ACAGGGCA	-0.242
TGCCGCCA	0.351
CTGATAGC	0.0833
TAAAGAGA	-0.187
CGACATAG	-0.0731
ATGGTTCG	0.0886
CGCCTCCC	0.0869
AGAACCAC	-0.187
CAGGACCG	0.0277
AAAGGAGA	-0.0949
CGTAAATC	0.0774
CTCCCACC	-0.0331
GGCTAGTA	-0.2
CCTATCCA	-0.244
CTACTACC	0.147
AAAATTTC	-0.0334
GCCACTTA	-0.203
GGACCTAA	0.0616
CCTCACCC	0.0606
GTTACACA	-0.0349
GGATGCCC	0.0435

Block 2
Target: ABI1, truncated, D143A, DHFR fusion (Arabidopsis thaliana)
Technique: DHFR PCA, deep sequencing
Sample: yeast
Notes: methotrexate growth selection, single substitutions
Together with: (+)-ABA 17 µM
Baseline: wild-type fitted maximum
Direction: higher = stronger binding
Starting sequence: PYL1, truncated, DHFR fusion (Arabidopsis thaliana); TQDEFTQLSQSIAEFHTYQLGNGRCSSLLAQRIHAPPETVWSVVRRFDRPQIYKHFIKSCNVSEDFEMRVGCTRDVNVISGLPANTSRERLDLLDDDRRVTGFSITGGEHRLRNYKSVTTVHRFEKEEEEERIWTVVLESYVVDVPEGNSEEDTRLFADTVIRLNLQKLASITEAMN
Change	relative binding score
V43E	1.17%
E67R	77.3%
N149T	53.6%
Y141S	-9.53%
L8E	19.6%
R32F	65.8%
N22A	88%
C60G	-0.767%
E4A	73.1%
K116L	-4.97%
D153P	-4.03%
E67C	79.9%
R49S	77.7%
L28H	7.56%
I52G	59.8%
R24L	66.3%
F103N	-19.2%
A175E	90.9%
N114C	17.5%
S117F	0.28%
A13M	71.6%
V143W	-3.73%
R32M	78.6%

Block 3
Target: Sal-like protein 4, full length isoform B (SALL4, Homo sapiens, UniProt Q9UJQ4-2, residues 1-616)
Technique: universal PBM
Form: double-stranded DNA, one strand shown
Sample: in vitro
Concentration: not given
Notes: 8-mer, flanks averaged, mean of replicates
Direction: higher = stronger binding
Sequence	E-score
ACGGTGCG	-0.206
CACAGTGG	-0.0163
CATAACAA	0.328
CTGTCAAC	-0.156
ACTCAAGA	-0.0562
CCCGTACA	-0.177
TCGGCGAA	-0.0751
ATCTTAAG	0.0493
ACTTAATC	0.196
AGCTTAGG	-0.162
AAGAATTG	0.159
TAACAGCA	0.193
GGGGTGAC	-0.0919
AAAGCGCC	-0.145
GAACCGAA	0.0411
GTCTCATA	0.215
AATTTTCC	0.148
GGCACGTA	-0.0807
ACGGAAAA	0.118
TACTATAA	0.281
CGTTCCGC	-0.246
AAGAGACT	-0.0113
ATCGCCAG	-0.0988
ACGATGTG	0.0447
CCCGTGAA	-0.00532

Block 4
Target: PABPC1L2, full length, GST fusion (mouse, UniProt A0ABA7IW68)
Technique: RNAcompete
Form: RNA
Sample: in vitro
Concentration: 20 nM
Notes: 7-mer, probes averaged, single round
Baseline: mean of 7-mers
Direction: higher = stronger binding
Residues (chain): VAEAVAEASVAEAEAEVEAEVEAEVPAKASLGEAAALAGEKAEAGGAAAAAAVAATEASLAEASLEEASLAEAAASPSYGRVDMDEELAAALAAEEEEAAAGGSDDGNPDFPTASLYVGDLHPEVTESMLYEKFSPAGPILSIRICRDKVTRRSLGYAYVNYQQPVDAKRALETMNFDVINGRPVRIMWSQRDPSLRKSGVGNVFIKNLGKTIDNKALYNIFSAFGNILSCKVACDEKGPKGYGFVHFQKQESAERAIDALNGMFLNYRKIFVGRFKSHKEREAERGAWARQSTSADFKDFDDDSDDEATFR
Sequence	7-mer Z-score
UGGCUCC	-0.106
AAUUCUC	-0.204
UAUGUAU	-0.291
GGAGAAU	0.104
AUUACCG	-0.199
UGGGGGG	0.146
CAACCUG	-0.104
ACCGCUA	-0.0935
GAAACGA	0.392
CUUAUUG	-0.197
AUGUCAU	-0.282
UCUUGCC	-0.322
AGCCACA	-0.106
CAGAGCU	-0.191
GAUCCGA	-0.208
AUUUCAC	-0.148
CGAAGGG	0.111
GUUUACU	-0.342

Block 5
Target: CCNB3, cyclin fold, Cln2 fusion (human)
Technique: yeast growth competition, sequencing
Sample: yeast
Notes: weak parent motif
Baseline: not given
Direction: higher = stronger binding
Starting sequence: RB1 docking peptide (human); PKPLKKLRFDIEG; partner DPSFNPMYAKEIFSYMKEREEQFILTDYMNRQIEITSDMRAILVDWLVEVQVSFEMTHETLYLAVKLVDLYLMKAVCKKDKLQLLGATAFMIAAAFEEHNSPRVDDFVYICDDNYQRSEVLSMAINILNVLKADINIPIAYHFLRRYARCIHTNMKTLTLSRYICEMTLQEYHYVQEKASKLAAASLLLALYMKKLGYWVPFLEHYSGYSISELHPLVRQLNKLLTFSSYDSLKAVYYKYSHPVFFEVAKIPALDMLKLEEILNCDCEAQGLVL
Change	normalised enrichment score
PKPLKKLRFDIEQ [G13Q]	0.554
PKPLFKLRFDIEG [K5F]	0.549
PKPLRKLRLDIEG [K5R F9L]	-0.0991
PKPLKKLQFDIEG [R8Q]	0.195
PKPLKFLRFDIEG [K6F]	0.0103
MKPLKKLRFDIEG [P1M]	-0.176
PKPLKKLRFKIEG [D10K]	0.15
PKLLKKLRFDIEG [P3L]	0.178
PKPLKKVRFDIEG [L7V]	0.342
PKPHKKLRFDIEG [L4H]	-0.327
PKPLKKLMFDIEG [R8M]	0.236
PKPLKKLRFDLEG [I11L]	0.737
PKPPKKLRFDIEG [L4P]	0.23
PKPLKKLAFDIEG [R8A]	0.234
PKPLKKLKFDIEG [R8K]	-0.0101
PKELKKLRFDIEG [P3E]	0.429
PKPLDKLRFDIEG [K5D]	0.056

Block 6
Target: RING finger protein unkempt homolog, zinc fingers 1-6, GST-SBP tag (UNK, Homo sapiens, UniProt Q9C0B0, residues 30-357)
UniProt Q9C0B0, sequence (30-357, looked up): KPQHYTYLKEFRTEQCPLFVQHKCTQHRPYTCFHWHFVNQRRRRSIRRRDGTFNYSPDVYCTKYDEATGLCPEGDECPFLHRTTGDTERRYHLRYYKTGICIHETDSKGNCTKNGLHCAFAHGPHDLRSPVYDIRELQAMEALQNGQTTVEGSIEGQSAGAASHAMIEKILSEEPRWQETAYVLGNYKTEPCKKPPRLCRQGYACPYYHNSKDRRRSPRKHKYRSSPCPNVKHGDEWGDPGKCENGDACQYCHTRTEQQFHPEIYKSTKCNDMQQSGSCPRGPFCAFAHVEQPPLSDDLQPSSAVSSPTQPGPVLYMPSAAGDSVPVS
Technique: RNA Bind-n-Seq
Form: RNA
Sample: in vitro
Concentration: not given
Notes: RNA with constant flanks, human and mouse sites, ends assumed
Baseline: input RNA pool
Direction: higher = stronger binding
Sequence	bound/input enrichment
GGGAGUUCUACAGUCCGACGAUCUUCCUGUUACCUUGAAAAAAUAAAAAUGUUAACAGGAAUGCAGUGUGCUCAUUCUCCCUAAAUAGUAAAUCCCACUGUAUACAAAACUGUUCUCUUGUUCUGCCUUUUAAAAUGUUCAUGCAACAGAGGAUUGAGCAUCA	0.992 ratio
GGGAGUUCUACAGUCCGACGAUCAUGGCUCACAAUCCUAAUAUGACCCAUUUGAAGAUUAAUCUGCCAGUUACUGCCCUUCCUCCCCUUUGGGUAAGAUGUGACAGUUCAGAUCCUGAAGGUACUUGUUGGCUAGGAGCUGAGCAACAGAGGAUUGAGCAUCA	0.181 ratio
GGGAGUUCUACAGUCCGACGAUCGAACCUGAGCCAGCAGAAGAGUACACUGAGCAAAGUGAAGUUGAAUCAACAGAGUAUGUAAAUAGACAGUUCAUGGCAGAAACACAGUUCACCAGUGGUGAAAAGGAGCAGGUAGAUGAGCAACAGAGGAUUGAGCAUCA	0.342 ratio
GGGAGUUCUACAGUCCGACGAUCUGCACUGAUAUCAUCCACCUCGAUGCCCAGCGGCUCCACUACUAUAGGGGCAAUUACAUGACCUUCAAAAAGAUGUACCAGCAGAAGCAGAAAGAACUGCUGAAACAGUAUGAGAAGCAACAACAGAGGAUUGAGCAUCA	0.243 ratio
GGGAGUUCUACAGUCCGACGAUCGUUAAUGAAGUUGUGGCAGGGAUAAAAGAAUACUUCAACGUAAUGUUGGGUACCCAGCUACUCUAUAAAUUUGAGAGACCACAGUAUGCUGAAAUUCUUGCAGAUCAUCCCGAUGCACCCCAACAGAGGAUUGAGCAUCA	0.179 ratio
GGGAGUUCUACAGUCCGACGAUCUAUUAUUUAAAUUUUAUUUCUGCUAUUUCAAGAAGUAAACUGGAAGAUAUUGCAAAUGCAGCGUUAGCAGCUAGUGCAGUAACACAAGUAGCCAAGGUUUUUGACCAAUAUCUCAAUUUUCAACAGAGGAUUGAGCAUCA	1.4 ratio
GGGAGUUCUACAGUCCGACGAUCUGGAUACAAUCGGACAAUUAUUUUCGCUCUGCUCUGUUUUGCAUGGAGUAUUAUUAUUAUUUUUUAAAUUGCAUUUUUACCUUUCAUGUGCCUGAAGGCUAUCCAAUACAUUCUGAAAGGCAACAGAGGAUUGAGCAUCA	18.4 ratio
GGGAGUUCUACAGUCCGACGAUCCUGAACAGCUACUAUUCCCAGCAGGGGGUUCCAGCCAGCAUCACAUUUUUUAGUCCCUCUGGCCUCACAUACAGUCUCAAGCACAUUCAGGAGUUAUCUGGUGACAAUAUCGAUCAAAUUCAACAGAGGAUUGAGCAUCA	0.671 ratio
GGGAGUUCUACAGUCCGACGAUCACCCCCCUCUUUCUCCUUGGCUGCAGUGGGGCCUUUAUCCAGUGCCAGGGAGGAACAACAUAGUUAAUUUUUUUCUAACCUUGCCACUUUGAGGGAAGGAAGGGUUGGGGGAAGGGCAAGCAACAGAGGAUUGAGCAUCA	4.28 ratio
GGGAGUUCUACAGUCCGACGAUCAAGCAUGAGUAUCAAGCAAAUGGGCCAGAAGACCUCAAUCGGACCUGUAUUGCUGAAAAGCUAGGUGGCUCCUUAAUUGUAGCCUUUGAAGGAUCCCCUGUGUAGACCGCCAGUCAGUGCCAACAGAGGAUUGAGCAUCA	0.389 ratio
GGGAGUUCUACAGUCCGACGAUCGAGAAGAAGCAGCAACUUCUUAGAGCGGCAACAGGAAAGGCCAUUUUAAAUGGAAUAGAUAGCAUUAACAAAGUGCUAGAACAUUUUCGGCGAAAAGGUAUAAACCAGCAUGUUCAAAAUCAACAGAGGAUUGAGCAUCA	0.249 ratio

A few entries again (block 1):
Sequence	E-score
GGATGCCC	0.0435
GCCACTTA	-0.203
GTTACACA	-0.0349
CTGTTAGC	-0.0981
AGAACCAC	-0.187
AAAATTTC	-0.0334
CGCAGGAA	0.0553
CGCCTCCC	0.0869
CAATATCG	0.0287
